# Measurements from different studies.
# Compare with care: the assays were run in different laboratories. ± marks the error that the study gave.
# Organism: Plasmodium falciparum
SMILES,assay,system,conditions,IC50
O=C1C(=O)c2[nH]cc3c2C(=C1Cl)NCC3,"parasite growth, SYBR Green",3D7,blood stage,14900 nM
C[C@H]1[C@H](OC(=O)CCC(=O)OCc2cn(-c3cc4ccc(O)cc4oc3=O)nn2)O[C@@H]2O[C@@]3(C)CC[C@H]4[C@H](C)CC[C@@H]1[C@@]24OO3,,"3D7, supernatant of treated uninfected erythrocytes","72 h, 500 nM preincubated 0.16 h",66 ± 11 nM
CCN(CC)CCCC(C)Nc1ccnc2cc(Cl)ccc12 (centres unmarked),parasite growth,K1,"72 h, drug-resistant strain, blood stage",87.7 nM
COc1cc2c3cc1Oc1cc(ccc1O)CC1c4c(cc(OC)c(O)c4Oc4ccc(cc4)CC3N(C)CC2)CCN1C (centres unmarked),"parasite growth, stage-specific treatment",,"12 h, early to late ring stage",7340 nM
CC(=O)c1c(O)c(C)c(O)c2c1OC1=CC(=O)C(=C(C)NNc3ccnc4cc(Cl)ccc34)C(=O)C12C (centres unmarked),"parasite growth, 3H-hypoxanthine incorporation",K1,asexual erythrocytic stages,1.1 µg/mL
O=C1C(NCCc2ccc(O)cc2)=CC2=NCCc3c(Br)[nH]c1c32,"parasite growth, SYBR Green",3D7,blood stage,4060 nM
CC(C)N1CCCCC1C(=O)NC(Cc1ccc(-c2ccccc2)cc1)B(O)O (centres unmarked),male gamete exflagellation,stage V gametocytes,48 h,1000 nM
COc1ccc(CCNC2=CC3=[N+](C)CCc4c[nH]c(c43)C2=O)cc1,"parasite growth, SYBR Green",3D7,blood stage,22.6 nM
C[OH+][Cu-2]12[O]C(c3cn(-c4ccccc4)nc3-c3ccc(Br)cc3)=N[N+]1=C(C)c1c(cc(C)oc1=O)[O]2 (centres unmarked),"parasite growth, SYBR Green I fluorescence",3D7,72 h,25600 nM
COc1cc2c(c(OC)c1)C(C)=[N+](c1ccc(OC)c3c(OC)cc(C)cc13)[C@@H](C)C2,"parasite growth, SYBR Green",W2,"drug-resistant strain, blood stage",1870 nM
CC1CCC(C(C)(C)C(=O)Nc2ccc(Oc3ccccc3)cc2)CC1 (centres unmarked),"parasite growth, SYBR Green",W2,blood stage,67 nM
C[C@H]1[C@@H](OCc2nnn(-c3cc4ccc(O)cc4oc3=O)c2CO[C@H]2O[C@@H]3O[C@@]4(C)CC[C@H]5[C@H](C)CC[C@@H]([C@H]2C)[C@@]35OO4)O[C@@H]2O[C@@]3(C)CC[C@H]4[C@H](C)CC[C@@H]1[C@@]24OO3,,"3D7, supernatant of treated uninfected erythrocytes","72 h, 500 nM preincubated 0.16 h",1.1 ± 0.4 nM
C[OH+][Cu-2]12[O]C(c3cn(-c4ccccc4)nc3-c3ccc(C)cc3)=N[N+]1=C(C)c1c(cc(C)oc1=O)[O]2 (centres unmarked),"parasite growth, SYBR Green I fluorescence",3D7,72 h,8950 nM
COCCN(C)C(C)C(=O)NC(Cc1ccc(-c2ccccc2)cc1)B(O)O (centres unmarked),,"V1/S β6 A117V K13 WT, WLL-resistant",72 h,3420 ± 1200 nM
CC(=O)c1c(O)c(C)c(O)c2c1OC1=CC(=O)C(=C(C)NCCCC(=O)OC3OC4OC5(C)CCC6C(C)CCC(C3C)C46OO5)C(=O)C12C (centres unmarked),"parasite growth, 3H-hypoxanthine incorporation",K1,asexual erythrocytic stages,0.001 µg/mL
COc1ccc2cc1Oc1cc3c(cc1OC)CCN(C)C3Cc1ccc(cc1)Oc1c(O)c(OC)cc3c1C(C2)N(C)CC3 (centres unmarked),"parasite growth, SYBR Green",,blood stage,410 nM
C[C@H]1[C@@H](OCc2cn(-c3cc4ccc(O)cc4oc3=O)nn2)O[C@@H]2O[C@@]3(C)CC[C@H]4[C@H](C)CC[C@@H]1[C@@]24OO3,,"3D7, supernatant of treated uninfected erythrocytes","72 h, 500 nM preincubated 0.16 h",1.2 ± 0.1 nM
"Oc1cccc2c1[nH]c1c(C3=CC4(O)CCC=CCCCCN5CCC3C3(CC6C=CCCCCN6C43)C5)nccc12 (single isomer, unassigned; (+))",,"W2, chloroquine-resistant",72 h,0.022 ± 0.01 µg/mL
"COc1cc(C)c(-c2ccc(O)c3c2C[C@@H](C)N[C@@H]3C)c2cccc(O)c12 (single isomer, unassigned)","parasite growth, SYBR Green",W2,"drug-resistant strain, blood stage",560 nM
CC(C)CCOC1C(C)C2C(C=CC3C(C)C=CC=CC(C)OC(=O)C(C)C(=O)C(Cl)(Cl)C(=O)C32)CC1(C)O (centres unmarked),"parasite growth, ELISA",DD2,"drug-resistant strain, blood stage",> 11000 nM
C[C@H]1[C@H](OC(=O)CCC(=O)OCc2nnn(-c3cc4ccc(O)cc4oc3=O)c2COC(=O)CCC(=O)O[C@@H]2O[C@@H]3O[C@@]4(C)CC[C@H]5[C@H](C)CC[C@@H]([C@H]2C)[C@@]35OO4)O[C@@H]2O[C@@]3(C)CC[C@H]4[C@H](C)CC[C@@H]1[C@@]24OO3,parasite growth,3D7,"24 h, blood stage",8.9 nM
CC(=O)c1c(O)c(C)c(O)c2c1OC1=CC(=O)C(=C(C)NCCNc3ccnc4cc(Cl)ccc34)C(=O)C12C (centres unmarked),"parasite growth, 3H-hypoxanthine incorporation",K1,asexual erythrocytic stages,0.167 µg/mL
COc1cc(O)c(-c2cc(-c3cc(-c4c(O)cc5c(c4OC)[C@H](C)N[C@H](C)C5)c4cc(C)cc(OC)c4c3O)c(O)c3c(OC)cc(C)cc23)c2c1[C@H](C)N[C@H](C)C2,"parasite growth, SYBR Green",W2,"drug-resistant strain, blood stage",134 nM
Cc1cc(N2CCC(C#N)(C3(C)CC3)C2=O)cc(C(=O)NCc2cc(F)cc(-c3cnn(C)c3)c2)n1 (racemic),"parasite growth, [3H]hypoxanthine incorporation",Dd2 Pfcarl mutant,,20 nM
"CCOC(=O)c1ccc2c(c1)C1CC(C)(N2)c2c(C)nc3ccc(C(=O)OCC)cc3c21 (single isomer, unassigned)","parasite growth, inhibitor, SYBR Green I",Cam3.1 R539T (MRA-1240),,14400 nM
Cc1ccc(S(=O)(=O)n2cc3c4c2C(=O)C(NCCc2ccc(O)cc2)=CC4=NCC3)cc1,"parasite growth, SYBR Green",3D7,blood stage,233 nM
C[OH+][Cu-2]12[O]C(c3cn(-c4ccccc4)nc3-c3ccc(F)cc3)=N[N+]1=C(C)c1c(cc(C)oc1=O)[O]2 (centres unmarked),SYBR Green I fluorescence,3D7,72 h,19600 nM
CC1C=CC=CC(C)C2C=CC3CC(C)(O)C(Cl)C(C)C3C2C(=O)C(Cl)(Cl)C(=O)C(C)C(=O)O1 (centres unmarked),"parasite growth, ELISA",DD2,"drug-resistant strain, blood stage",43 nM
C[C@@H]1CC[C@H]2[C@@H](C)C(=O)O[C@@H]3O[C@@]4(C)CC[C@@H]1[C@]32OO4,parasite growth,K1,"72 h, drug-resistant strain, blood stage",0.69 nM
CC1C=CC=CC(C)C2C=CC3CC(C)(Cl)C(O)C(C)C3C2C(=O)C(Cl)(Cl)C(=O)C(C)C(=O)O1 (centres unmarked),"parasite growth, ELISA",DD2,"drug-resistant strain, blood stage",310 nM
O[C@H](CNCCNC(c1ccccc1)c1ccccc1)c1cc(Cl)cc2c1-c1ccc(Cl)cc1C2,"parasite growth, SYBR Green",W2,"48 h, drug-resistant strain, blood stage",1.8 nM
CC1C=CC=CC(C)C2C=CC3CC(C)(O)C(O[N+](=O)[O-])C(C)C3C2C(=O)C(Cl)(Cl)C(=O)C(C)C(=O)O1 (centres unmarked),"parasite growth, ELISA",DD2,"drug-resistant strain, blood stage",2.25 nM
Cc1ccc2c(c1)C1CC(C)(N2)c2c(C)nc3ccc(C)cc3c21 (centres unmarked),"parasite growth, inhibitor, SYBR Green I",Cam3.1 R539T (MRA-1240),,86 nM
O[Si](CCCN1CCCCC1)(c1ccc(F)cc1)C1CCCCC1 (centres unmarked),"parasite growth, SYBR Green",FCB,,22 nM
CC1C=CC=CC(C)C2C=CC3CC(C)(O)C(Br)C(C)C3C2C(=O)C(Cl)(Cl)C(=O)C(C)C(=O)O1 (centres unmarked),"parasite growth, ELISA",DD2,"drug-resistant strain, blood stage",64 nM
